Experimental data pooled from the literature.
Compare with care: the assays were run in different laboratories. ± gives the spread as reported.
KDR: Vascular endothelial growth factor receptor 2 (KDR, Homo sapiens, UniProt P35968)
PDGFRB: Platelet-derived growth factor receptor beta (PDGFRB, Homo sapiens, UniProt P09619)
SLCO2B1: Solute carrier organic anion transporter family member 2B1 (SLCO2B1, Homo sapiens, UniProt O94956)

`COc1cc2nccc(Oc3ccc(NC(=S)N4CC(F)(F)C4)c(Cl)c3)c2cc1C(N)=O` has an IC50 of 36.1 nM (KDR).
`O=C(Nc1ccc(C(=O)Nc2ccc(C(=O)Nc3ccc(S(=O)(=O)O)c4cc(S(=O)(=O)O)cc(S(=O)(=O)O)c34)cc2)cc1)Nc1ccc(C(=O)Nc2ccc(C(=O)Nc3ccc(S(=O)(=O)O)c4cc(S(=O)(=O)O)cc(S(=O)(=O)O)c34)cc2)cc1` has an IC50 of over 180000 nM (Serine protease 1 (PRSS1, Bos taurus, UniProt P00760); enzyme activity, inhibitor, absorbance; pH 7.4).
`Nc1nc2c(c(=O)[nH]1)[n+](Cc1ccc(F)c(F)c1)cn2[C@@H]1O[C@H](COP(=O)(O)O)[C@@H](O)[C@H]1O` has an IC50 of 10900 ± 1900 nM (7-methylguanosine phosphate-specific 5'-nucleotidase (NT5C3B, Homo sapiens, UniProt Q969T7); m7GMP dephosphorylation, inhibitor, malachite green; 1 h preincubation, pH 7.5, 30 °C, added: m7GMP 100 µM).
`COCCNc1nc(-c2nccn2C)nc2sc(-c3cccc(OC)c3Cl)c(-c3ccccc3)c12` has an IC50 of 600 nM (Ras-related protein Rab-35 (Homo sapiens, UniProt Q15286); GTP binding, inhibitor; added: fluorescent GTP 100 nM).
For `O=C(CN1CCOc2ccccc2C1)c1ccc2[nH]c(=O)[nH]c2c1`, the IC50 was 290000 nM (DNA dC->dU-editing enzyme APOBEC-3A (Homo sapiens, UniProt P31941); enzyme activity, inhibitor; pH 5.5).
`Cn1c(=O)c2c(nc(CN3CCN(C(=O)C4CC4)CC3)n2Cc2ccccc2)n(C)c1=O` gave an IC50 of over 57000 nM (Peroxisomal multifunctional enzyme type 2 (HSD17B4, Homo sapiens, UniProt P51659)).
With `COc1cc2nccc(Oc3ccc(NC(=S)NC(C)C)c(Cl)c3)c2cc1C(N)=O` the IC50 was 78.5 nM (PDGFRB).
With `Cc1cc(C(=O)NCCNC(=O)c2cccc(COc3ccccc3C(N)=O)c2)n[nH]1` the IC50 was 12 nM (Poly [ADP-ribose] polymerase 2 (PARP2, Homo sapiens, UniProt Q9UGN5); enzyme activity, inhibitor).
`CCc1ccc(NC(=O)CNS(=O)(=O)c2nc(-c3ccc(OC(F)(F)F)cc3)cc(C(F)(F)F)n2)cc1` gave an IC50 of about 13 nM (Bifunctional 3'-5' exonuclease/ATP-dependent helicase WRN (WRN, Homo sapiens, UniProt Q14191); DNA unwinding, inhibitor, TAMRA dequenching).
`CN(C(=O)c1ccn2ncc(-c3ccc(C(N)=O)cc3)c2c1)c1ccc(C#N)cn1` gave an IC50 of over 30000 nM (Alpha-2C adrenergic receptor (ADRA2C, Homo sapiens, UniProt P18825); ligand displacement).
`CC(C)(C)c1ccc(C(=O)Oc2ccc3c(-c4ccccc4C(=O)O)c4ccc(=O)cc-4oc3c2)cc1` has an IC50 of 71700 nM (Alpha-ketoglutarate-dependent dioxygenase FTO (FTO, Homo sapiens, UniProt Q9C0B1); enzyme activity, inhibitor, mass spectrometry).
With `NCCCCCCN1N=C(c2ccc(NC(=O)N3Cc4ccncc4C3)cc2)CC(c2cccc3ncccc23)C1=O` (stereo not shown) the IC50 was 0.2 nM (Nicotinamide phosphoribosyltransferase (NAMPT, Homo sapiens, UniProt P43490); enzyme activity, inhibitor).
For `O=C(Nc1ccc2nc(NC(=O)c3ccco3)sc2c1)c1ccco1`, the IC50 was 63 ± 26 nM (Nucleoside transporter 1 (Plasmodium vivax, UniProt A5K8B0); yeast growth; purine auxotrophic yeast expressing target; 15 to 17 h, added: adenosine 1 mM).
For `COc1cc2nccc(Oc3ccc(NC(=S)NC4CC4)c(Cl)c3)c2cc1-c1ncco1`, the IC50 was 101 nM (KDR).
With `Cn1c(=O)c2c(nc(OC3CCN(C(=O)C4CC4)CC3)n2Cc2ccccc2Cl)n(C)c1=O` the IC50 was 177 ± 49 nM (Aldehyde dehydrogenase 1A1 (ALDH1A1, Homo sapiens, UniProt P00352)).
`Cc1cnc(Nc2cc(C)c(C)c(C)c2)nc1Nc1ccc2oc(=O)[nH]c2c1` has an IC50 of 103 nM (Non-receptor tyrosine-protein kinase TYK2 (TYK2, Homo sapiens, UniProt P29597); enzyme activity, inhibitor; added: ATP 1 mM).
`CC1OC(Oc2c(-c3ccc(O)c(O)c3)oc3cc(O)cc(O)c3c2=O)C(O)C(O)C1O` (stereo not shown) has an IC50 of over 100000 nM (Alpha-glucosidase MAL12 (MAL12, Saccharomyces cerevisiae S288c, UniProt P53341); enzyme activity, inhibitor, absorbance).
`COc1cc2nccc(Oc3ccc(NC(=S)Nc4cccc(C(F)(F)F)c4)c(Cl)c3)c2cc1C(N)=O` gave an IC50 of 564 nM (PDGFRB).
`CC1(C)C2CC3C(c4ccccc4)c4c(O)c(C=O)c(O)c(C=O)c4OC3(C)C1C2` (single isomer, unassigned; (+)) has an IC50 of 2800 nM (ATP-dependent 6-phosphofructokinase, liver type (PFKL, Homo sapiens, UniProt P17858); enzyme activity, inhibitor, coupled enzyme; HEK293T cell lysate; apparent).
With `O=C1C2CC3CC1CC(C(=O)N1CCN(c4ccc([N+](=O)[O-])c5ncccc45)CC1)(C3)C2` the IC50 was 230 nM (Toll-like receptor 7 (TLR7, Homo sapiens, UniProt Q9NYK1); reporter gene).
The IC50 of `COc1ccc(C(=O)CCc2cc(C(CCc3ccc(O)cc3OC)c3ccc(O)cc3)c(O)cc2OC)cc1` (racemic) is reported as about 1000 nM (Prostaglandin E synthase (PTGES, Homo sapiens, UniProt O14684); enzyme activity, inhibitor; microsomes of IL-1β-treated A549 cells).
`O=C(CNc1nc(Cl)nc(NNC(=O)c2ccc(Nc3nc(Nc4ccc(C(=O)NNc5nc(Cl)nc(NCC(=O)NO)n5)cc4)nc(Nc4ccc(C(=O)NNc5nc(Cl)nc(NCC(=O)NO)n5)cc4)n3)cc2)n1)NO` has an IC50 of 541 nM (72 kDa type IV collagenase (MMP2, Homo sapiens, UniProt P08253); enzyme activity, inhibitor, fluorescence).
With `O=C(NCc1ccccc1)/C(=C/c1cn(-c2ccccc2)nc1-c1ccccc1)NC(=O)c1ccc(Cl)cc1Cl` the IC50 was 820 nM (Prostaglandin G/H synthase 2 (PTGS2, Ovis aries, UniProt P79208); enzyme activity, inhibitor, absorbance).
`COc1ccc([C@@H]2CC(=O)c3c(O)cc(O[C@@H]4O[C@H](CO[C@@H]5O[C@@H](C)[C@H](O)[C@@H](O)[C@H]5O)[C@@H](O)[C@H](O)[C@H]4O)cc3O2)cc1` gave an IC50 of 3800 nM (SLCO2B1; transporter uptake, inhibitor, flow cytometry; HEK293; 10 min).
`CC(C)(C)CCN(Cc1ccc(F)cc1)c1nc(C#N)nc(N2CCOCC2)n1` gave an IC50 of 160 nM (Procathepsin L (CTSL, Homo sapiens, UniProt P07711); enzyme activity, inhibitor, fluorescence).
The IC50 of `CC(=S)NCCCC[C@H](NC(=O)[C@H](CCCNC(=N)N)NC(=O)[C@H](C)N)C(=O)N[C@@H](CO)C(=O)N[C@H](C(=O)O)[C@@H](C)O` is reported as over 100000 nM (NAD-dependent protein deacylase sirtuin-6 (SIRT6, Homo sapiens, UniProt Q8N6T7)).
`COCc1cc2c(cn1)CN(C(=O)Nc1nc(-c3ccc(F)cc3)ccc1N)C2` has an IC50 of over 30000 nM (Polyamine deacetylase HDAC10 (HDAC10, Homo sapiens, UniProt Q969S8); deacetylase activity, inhibitor, recombinant enzyme).
`NC1CCC(Nc2nccc(-c3cccnc3Oc3ccc(NS(=O)(=O)c4ccccc4Cl)cc3F)n2)CC1` (stereo not shown) gave an IC50 of 3.9 ± 1.1 nM (Serine/threonine-protein kinase/endoribonuclease IRE2, RNase domain (ERN2, Homo sapiens, UniProt Q76MJ5); RNase activity, inhibitor; added: XBP1 mini-substrate).
With `COC(=O)c1cc2c(Oc3ccc(NC(=S)NC4CC4)c(Cl)c3)ccnc2cc1OC` the IC50 was 72.5 nM (PDGFRB).
With `CCCc1c(OC)c(=O)c2c(O)c(/C=C/c3ccccc3)c(OC)c3c4c(OC)c(/C=C/c5ccccc5)c(O)c5c(=O)c(OC)c(CCC)c(c1c23)c54` the IC50 was 4000 nM (protein kinase C; enzyme activity, inhibitor; whole enzyme).
With `CCc1oc2ccc(OC)cc2c1C(=O)c1cc(Br)c(O)c(Br)c1` the IC50 was 21 nM (SLCO2B1; transporter uptake, inhibitor, radiometric).
`Clc1ccccc1C(Nc1nccs1)(c1ccccc1)c1ccccc1` gave an IC50 of 15000 nM (Intermediate conductance calcium-activated potassium channel protein 4 (KCNN4, Homo sapiens, UniProt O15554); ion current, inhibitor, patch clamp).
`CCCc1nn(-c2ccccc2)c(O)c1-c1nc2ccccc2[nH]c1=O` gave an IC50 of 20 to 28 nM (Tyrosine-protein kinase JAK3 (JAK3, Homo sapiens, UniProt P52333); enzyme activity, inhibitor, ADP detection).
The IC50 of `COc1cc2ncnc(Oc3ccc(Nc4nccc5[nH]cc(-c6ccc(F)cc6)c(=O)c45)cc3F)c2cc1OCCN1CCOCC1` is reported as 27.1 nM (Hepatocyte growth factor receptor (MET, Homo sapiens, UniProt P08581); kinase activity, inhibitor, HTRF).

Repeated from above:
`CCc1ccc(NC(=O)CNS(=O)(=O)c2nc(-c3ccc(OC(F)(F)F)cc3)cc(C(F)(F)F)n2)cc1` gave an IC50 of about 13 nM (Bifunctional 3'-5' exonuclease/ATP-dependent helicase WRN (WRN, Homo sapiens, UniProt Q14191); DNA unwinding, inhibitor, TAMRA dequenching).
`CN(C(=O)c1ccn2ncc(-c3ccc(C(N)=O)cc3)c2c1)c1ccc(C#N)cn1` gave an IC50 of over 30000 nM (Alpha-2C adrenergic receptor (ADRA2C, Homo sapiens, UniProt P18825); ligand displacement).
`CC(C)(C)c1ccc(C(=O)Oc2ccc3c(-c4ccccc4C(=O)O)c4ccc(=O)cc-4oc3c2)cc1` has an IC50 of 71700 nM (Alpha-ketoglutarate-dependent dioxygenase FTO (FTO, Homo sapiens, UniProt Q9C0B1); enzyme activity, inhibitor, mass spectrometry).
With `NCCCCCCN1N=C(c2ccc(NC(=O)N3Cc4ccncc4C3)cc2)CC(c2cccc3ncccc23)C1=O` (stereo not shown) the IC50 was 0.2 nM (Nicotinamide phosphoribosyltransferase (NAMPT, Homo sapiens, UniProt P43490); enzyme activity, inhibitor).
